Measurements collected from several papers.
Organism: Staphylococcus aureus

COc1cc(C(=O)O)ccc1NC(=O)c1ccc(NC(=O)c2ccc(NC(=O)[C@H](Cc3c[nH]nn3)NC(=O)c3ccc(NC(=O)/C(C)=C/c4ccc(O)cc4)cc3)cc2)c(OC)c1  MIC (broth microdilution; ciprofloxacin-sensitive): 4 µg/mL
CCCCCCCCCCn1cc[n+](CCCCOc2cc(OCCCC[n+]3ccn(CCCCCCCCCC)c3)cc(OCCCC[n+]3ccn(CCCCCCCCCC)c3)c2)c1.[Br-].[Br-].[Br-]  MIC (HA-MRSA ATCC 33591): 1 µM
COc1ccc(/N=N/C(=S)N2CCN(C)CC2)cc1  MIC (microbial growth, broth dilution; ATCCBAA44 MRSA; 24 h): > 50 µM
CCCCCC[N+](C)(C)CCCCCCCCCCOc1cc(OCCCCCCCCCC[N+](C)(C)CCCCCC)cc(OCCCCCCCCCC[N+](C)(C)CCCCCC)c1.[Br-].[Br-].[Br-]  MIC (HA-MRSA ATCC 33591): 2 µM
CC[C@H]1OC(=O)[C@H](C)[C@@H](OC(=O)Cc2ccc([N+](=O)[O-])cc2)[C@H](C)[C@@H](O[C@@H]2O[C@H](C)C[C@H](N(C)C)[C@H]2O)[C@](C)(OC)C[C@@H](C)C(=O)[C@H](C)[C@@H](O)[C@]1(C)O  MIC (BAA-977): 2 µg/mL
CCCCCCCCCC[N+](C)(C)CCCCCCOc1cc(OCCCCCC[N+](C)(C)CCCCCCCCCC)cc(OCCCCCC[N+](C)(C)CCCCCCCCCC)c1.[Br-].[Br-].[Br-]  MIC (CA-MRSA USA300-0114): 1 µM
CC[C@H](C)[C@H](NC(=O)[C@H](CCC(N)=O)NC(=O)[C@H](Cc1ccccc1)NC(=O)[C@H](CC(N)=O)NC(=O)[C@H](CCCCN)NC(=O)[C@H](CC(C)C)NC(=O)[C@H](CCCNC(=N)N)NC(=O)[C@H](CCCCN)NC(=O)[C@H](CCCCN)NC(=O)[C@@H](NC(=O)[C@H](CO)NC(=O)[C@H](CCCCN)NC(=O)CNC(=O)[C@H](CC(C)C)NC(=O)[C@H](CCCCN)NC(=O)[C@H](CCCCN)NC(=O)[C@H](CC(C)C)NC(=O)[C@H](CCCCN)NC(=O)[C@H](CCCCN)NC(=O)[C@H](CCCNC(=N)N)NC(=O)[C@H](CC(C)C)NC(=O)CNC(=O)[C@@H](N)CCCNC(=N)N)[C@@H](C)CC)C(=O)NCC(=O)N[C@@H](Cc1ccccc1)C(=O)N[C@@H](CO)C(=O)N[C@H](C(=O)N1CCC[C@H]1C(=O)N[C@@H](Cc1ccccc1)C(=O)N[C@@H](C)C(=O)NCC(=O)O)C(C)C  MIC (broth microdilution; ATCC 29213): 35.7 µM
CC[C@H]1OC(=O)[C@H](C)[C@@H](OC(=O)Cc2c(F)cccc2F)[C@H](C)[C@@H](O[C@@H]2O[C@H](C)C[C@H](N(C)C)[C@H]2O)[C@](C)(OC)C[C@@H](C)C(=O)[C@H](C)[C@@H](O)[C@]1(C)O  MIC (microbial growth; BAA976): 2 µg/mL
COc1c(NC(=O)c2ccc(NC(=O)c3ccc(NC(=O)[C@H](Cc4c[nH]nn4)NC(=O)c4ccc(NC(=O)/C(C)=C/c5ccc(O)cc5)cc4)cc3)cc2O)ccc(C(=O)O)c1O  MIC (broth microdilution; ciprofloxacin-resistant): 32 µg/mL
CCCCCCCCCCn1cc[n+](CCCCCCOc2cc(OCCCCCC[n+]3ccn(CCCCCCCCCC)c3)cc(OCCCCCC[n+]3ccn(CCCCCCCCCC)c3)c2)c1.[Br-].[Br-].[Br-]  MIC (SH1000 MSSA): 2 µM
CCCCCCC#Cc1cncc(-c2nnc(SCc3cc([N+](=O)[O-])cc([N+](=O)[O-])c3)n2C)c1  MIC (microbial growth, broth dilution; ATCC29213): > 64 µg/mL
CC[C@H](C)[C@H](N)C1=N[C@H](C(=O)N[C@@H](CC(C)C)C(=O)N[C@H](CCC(=O)O)C(=O)N[C@H](C(=O)N[C@H]2CCCCNC(=O)[C@H](CC(N)=O)NC(=O)[C@@H](CC(=O)O)NC(=O)[C@H](Cc3c[nH]cn3)NC(=O)[C@@H](Cc3ccccc3)NC(=O)[C@H]([C@@H](C)CC)NC(=O)[C@@H](CCCN)NC2=O)[C@@H](C)CC)CS1  MIC (ATCC 29213 MSSA; LB with 0.3 mM ZnSO4): 1 µg/mL
O=[N+]([O-])c1cc(Cl)c2cccnc2c1O  MIC (broth microdilution; ATCC 43300 MRSA): 2 µg/mL
O=C(Nc1ccccc1)Nc1ccc2c(c1)OC(F)(F)O2  MIC (microbial growth; NCTC8325): > 100 µM
CCCCCCCCn1cc[n+](CCCCCCOc2cc(OCCCCCC[n+]3ccn(CCCCCCCC)c3)cc(OCCCCCC[n+]3ccn(CCCCCCCC)c3)c2)c1.[Br-].[Br-].[Br-]  MIC (SH1000 MSSA): 1 µM
CC[C@H]1OC(=O)[C@H](C)[C@@H](OC(=O)Cc2cccc3ccccc23)[C@H](C)[C@@H](O[C@@H]2O[C@H](C)C[C@H](N(C)C)[C@H]2O)[C@](C)(OC)C[C@@H](C)C(=O)[C@H](C)[C@@H](O)[C@]1(C)O  MIC (BAA-977): 8 µg/mL
CC(C)C[C@@H]1NC(=O)[C@@H](CC(C)C)NC(=O)[C@H](CCN)NC(=O)[C@@H](NC(=O)[C@H](CCN)NC(=O)[C@@H](N)[C@@H](C)O)CCNC(=O)[C@H]([C@@H](C)O)NC(=O)[C@H](CCN)NC(=O)[C@H](CCN)NC1=O  MIC (MRSA USA300): > 138 µM
CC1C=CC=CC(C)C2C=CC3CC(C)(O)C(Cl)C(C)C3C2C(=O)C(Cl)(Cl)C(=O)C(C)C(=O)O1 (stereo not drawn)  MIC (MSSA clinical isolate; CLI ERY resistant): 0.025 µg/mL
CC[C@H]1OC(=O)[C@H](C)[C@@H](OC(=O)c2ccc(N)cc2)[C@H](C)[C@@H](O[C@@H]2O[C@H](C)C[C@H](N(C)C)[C@H]2O)[C@](C)(OC)C[C@@H](C)C(=O)[C@H](C)[C@@H](O)[C@]1(C)O  MIC (ATCC 43300 MRSA): > 256 µg/mL
CCCCCCCCn1cc[n+](CCCCCCCCCCOc2cc(OCCCCCCCCCC[n+]3ccn(CCCCCCCC)c3)cc(OCCCCCCCCCC[n+]3ccn(CCCCCCCC)c3)c2)c1.[Br-].[Br-].[Br-]  MIC (CA-MRSA USA300-0114): 4 µM
COc1c(C)c(OS(=O)(=O)c2ccccc2)c(C)c(OS(=O)(=O)c2ccccc2)c1C(=O)/C=C/c1ccccc1  MIC (microbial growth, broth dilution; ATCC25923): 5000 µg/mL
CCOc1c(NC(=O)c2ccc(NC(=O)c3ccc(NC(=O)[C@H](Cc4c[nH]nn4)NC(=O)c4ccc(NC(=O)/C(C)=C/c5ccc(O)cc5)cc4)cc3)c(OC)c2O)ccc(C(=O)O)c1O  MIC (broth microdilution; ciprofloxacin-sensitive): 0.125 µg/mL
CC[C@H]1OC(=O)[C@H](C)[C@@H](O[C@H]2C[C@@](C)(OC)[C@@H](O)[C@H](C)O2)[C@H](C)[C@@H](O[C@@H]2O[C@H](C)C[C@H](N(C)C)[C@H]2O)[C@](C)(OC)C[C@@H](C)C(=O)[C@H](C)[C@@H](O)[C@]1(C)O  MIC (BAA-977): 8 µg/mL
CCCCCCCCCCCC[N+](C)(C)CCCCCCCCOc1cc(OCCCCCCCC[N+](C)(C)CCCCCCCCCCCC)cc(OCCCCCCCC[N+](C)(C)CCCCCCCCCCCC)c1.[Br-].[Br-].[Br-]  MIC (CA-MRSA USA300-0114): 8 µM
CC[C@H]1OC(=O)[C@H](C)[C@@H](OC(=O)Cc2ccccc2[N+](=O)[O-])[C@H](C)[C@@H](O[C@@H]2O[C@H](C)C[C@H](N(C)C)[C@H]2O)[C@](C)(OC)C[C@@H](C)C(=O)[C@H](C)[C@@H](O)[C@]1(C)O  MIC (DSM 20231 MSSA): 1 µg/mL
CN[C@H](CC(C)C)C(=O)N[C@H]1C(=O)N[C@@H](CC(N)=O)C(=O)N[C@H]2C(=O)N[C@H]3C(=O)N[C@H](C(=O)N[C@H](C(=O)N[C@@H](CCCNC(=N)N)C(N)=O)c4cc(O)cc(O)c4-c4cc3ccc4O)[C@H](O)c3ccc(c(Cl)c3)Oc3cc2cc(c3O[C@@H]2O[C@H](CO)[C@@H](O)[C@H](O)[C@H]2O[C@H]2C[C@](C)(NCc3ccc(OCc4cn(CC(=O)N[C@H](C(=O)N[C@@H](CCN)C(=O)N[C@H]5CCNC(=O)[C@H]([C@@H](C)O)NC(=O)[C@H](CCN)NC(=O)[C@H](CCN)NC(=O)[C@H](CC(C)C)NC(=O)[C@@H](CC(C)C)NC(=O)[C@H](CCN)NC5=O)[C@@H](C)O)nn4)c(OC)c3)[C@H](O)[C@H](C)O2)Oc2ccc(cc2Cl)[C@H]1O  MIC (broth microdilution; MSSA ATCC 29213, cation-adjusted Mueller-Hinton broth; 20 to 24 h, 37 °C, 0.002% polysorbate 80): 1 µg/mL
C=C1CN(C(=N)N)CC2Nc3c(F)cc(Br)cc3C12CCNS(=O)(=O)c1ccc(Cl)cc1.O=C(O)C(F)(F)F (stereo not drawn)  MIC (NR-46414, vancomycin-resistant): 2 µg/mL
N=C(N)NCCC[C@@H]1NC(=O)[C@H](CCCNC(=N)N)NC(=O)[C@@H](C(c2ccccc2)c2ccccc2)NC(=O)[C@H](Cc2c[nH]c3ccccc23)NC(=O)[C@@H](C(c2ccccc2)c2ccccc2)NC(=O)[C@@H](CCCNC(=N)N)NC(=O)[C@@H](CCCNC(=N)N)NC1=O  MIC (ATCC 29213, MSSA): 4 µg/mL
CCCCCCCC[N+](C)(C)CCCCCCOc1cc(OCCCCCC[N+](C)(C)CCCCCCCC)cc(OCCCCCC[N+](C)(C)CCCCCCCC)c1.[Br-].[Br-].[Br-]  MIC (SH1000 MSSA): 0.5 µM
CC[C@H](C)[C@H](NC(=O)[C@@H](CCCNC(=N)N)NC(=O)[C@H](CCCNC(=N)N)NC(=O)[C@@H]1CCCN1C(=O)[C@@H]1CCCN1C(=O)[C@H](CCCNC(=N)N)NC(=O)[C@@H]1CCCN1C(=O)[C@H](CCCNC(=N)N)NC(=O)[C@@H]1CCCN1C(=O)[C@H](CCCNC(=N)N)NC(=O)[C@H](Cc1ccc(O)cc1)NC(=O)[C@@H]1CCCN1C(=O)[C@@H]1CCCN1C(=O)[C@H](CCCCN)NC(=O)[C@H](CC(=O)O)NC(=O)[C@@H](N)C(C)C)C(=O)N[C@@H](Cc1ccc(O)cc1)C(=O)N[C@@H](CC(N)=O)C(=O)N[C@H](CCCNC(=N)N)C(N)=O  MIC (broth microdilution; DSM 6247; 18 h, 37 °C, 25% MHB2): 64 µg/mL
CC[C@H]1OC(=O)[C@H](C)[C@@H](OC(=O)Cc2cccc(Cl)c2)[C@H](C)[C@@H](O[C@@H]2O[C@H](C)C[C@H](N(C)C)[C@H]2O)[C@](C)(OC)C[C@@H](C)C(=O)[C@H](C)[C@@H](O)[C@]1(C)O  MIC (ATCC 43300 MRSA): > 64 µg/mL
COc1nc(C(=O)O)ccc1NC(=O)c1ccc(NC(=O)c2ccc(NC(=O)[C@H](Cc3c[nH]nn3)NC(=O)c3ccc(NC(=O)/C(C)=C/c4ccc(O)cc4)cc3)cc2)c(OC)c1O  MIC (broth microdilution; ciprofloxacin-resistant): 16 µg/mL
CC[C@H](C)[C@@H]1NC(=O)[C@@H]([C@@H](C)O)NC(=O)CNC(=O)[C@H](CC(=O)O)NC(=O)CNC(=O)[C@H](CC(=O)O)NC(=O)CNC(=O)[C@H]2CCCCN2C(=O)[C@@H](NC(=O)[C@H](CC(=O)O)NC(=O)/C=C/CCCCCCCCCC(C)C)CNC(=O)[C@@H]2CCCN2C1=O  MIC (broth microdilution; MRSA USA300, Mueller-Hinton broth, Mg2+ 10 mg/L; 16 h, 37 °C, added: Ca2+ 10 mM): 2 µg/mL
